Measurements of several laboratories.
Every numbered part comes from another study and shows a few of its results, in no order. Substitutions count along the parent as printed.

Block 1
Target: ABI1, truncated, D143A, DHFR fusion (Arabidopsis thaliana)
Technique: DHFR PCA, deep sequencing
Sample: yeast
Setting: methotrexate growth selection, single substitutions
Together with: (+)-ABA 710 µM
Baseline: wild-type fitted maximum
Direction: higher = stronger binding
Parent: PYL1, truncated, DHFR fusion (Arabidopsis thaliana); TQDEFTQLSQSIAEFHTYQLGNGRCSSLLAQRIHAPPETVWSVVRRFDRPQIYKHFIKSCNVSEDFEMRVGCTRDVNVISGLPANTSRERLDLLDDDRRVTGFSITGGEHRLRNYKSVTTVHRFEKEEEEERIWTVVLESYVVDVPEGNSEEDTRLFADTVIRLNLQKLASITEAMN; partner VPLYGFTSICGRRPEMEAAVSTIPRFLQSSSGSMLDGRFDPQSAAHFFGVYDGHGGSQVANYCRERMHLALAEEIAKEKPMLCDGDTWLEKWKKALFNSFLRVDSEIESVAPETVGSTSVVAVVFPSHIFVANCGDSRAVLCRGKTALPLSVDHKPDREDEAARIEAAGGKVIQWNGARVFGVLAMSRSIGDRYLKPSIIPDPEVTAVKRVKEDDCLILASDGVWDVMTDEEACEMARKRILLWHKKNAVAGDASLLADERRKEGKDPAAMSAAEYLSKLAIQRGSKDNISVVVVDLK
Substitution | relative binding score
R74A | 1.79%
F103V | 51.1%
I12W | 80.1%
E128P | 114%
E125F | 109%
Q31R | 98.9%
D75C | 100%
Y18V | 97.4%
N177T | 101%
L138N | 35.3%
L164G | 93.8%
P36K | 102%
G21S | 101%
L156G | 95%
V136L | 102%
S150M | 83.2%
G23I | 83.2%
G148I | 69.4%
T17L | 87.7%
V40Q | -10.2%
D144N | 95%
A170C | 102%
N22T | 101%
A84S | 83.6%
D95K | 83.6%

Block 2
Target: Histone acetyltransferase KAT6A, both winged helices, GST fusion (KAT6A, Homo sapiens, UniProt Q92794, residues 1-181)
Technique: protein binding microarray
Molecule type: double-stranded DNA, one strand shown
Sample: in vitro
Tested at: not given
Setting: 8-mer, flanks averaged, mean of 2 arrays, mostly near background
Baseline: not given
Direction: higher = stronger binding
Construct (chain): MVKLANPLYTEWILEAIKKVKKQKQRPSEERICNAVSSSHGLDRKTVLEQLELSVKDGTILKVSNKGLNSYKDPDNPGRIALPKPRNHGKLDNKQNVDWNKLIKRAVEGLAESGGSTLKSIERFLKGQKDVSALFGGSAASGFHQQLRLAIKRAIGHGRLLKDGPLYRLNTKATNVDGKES
Oligonucleotide | E-score
CCAGTAAC | -0.0203
AACTAGAA | -0.0492
ACTATGCC | 0.0424
CCAACTGG | -0.23
TATAACCA | -0.0934
CTACTTGA | -0.113
AATCATAA | -0.146
AGAAAAAG | -0.199
AAGTATGT | -0.217
ATTCAAGA | -0.0968
ACATTTGG | -0.0517
TTGATCAA | 0.0471
CGTTTGAG | -0.0222
AGTGATCG | -0.02
CATGTAAC | 0.159
CATATCCG | 0.0889
AAGATTGA | -0.147
AGCCATGA | -0.11
CTGAGGCC | 0.0762
AGGTTCAG | -0.205
ACTTTGAA | -0.095
ACGCCCGC | 0.276
AACGGAGG | 0.0677

Block 3
Target: CCNA1, cyclin fold, Cln2 fusion (human)
Technique: yeast growth competition, sequencing
Sample: yeast
Setting: weak parent motif
Baseline: not given
Direction: higher = stronger binding
Parent: MASTL docking peptide (human); PMIAKNLMCELDE; partner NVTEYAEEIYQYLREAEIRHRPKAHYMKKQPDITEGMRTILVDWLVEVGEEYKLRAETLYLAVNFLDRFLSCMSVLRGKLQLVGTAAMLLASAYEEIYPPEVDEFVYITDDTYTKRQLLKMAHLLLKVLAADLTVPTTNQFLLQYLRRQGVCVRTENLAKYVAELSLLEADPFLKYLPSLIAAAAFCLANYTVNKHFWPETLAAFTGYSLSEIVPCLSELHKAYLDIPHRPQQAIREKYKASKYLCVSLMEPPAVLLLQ
Substitution | normalised enrichment score
L11W | 0.0843
D12T | 0.207
D12I | -0.406
N6M | 0.319
N6S | 0.168
E10I | 0.397
L7K | 0.44
A4I | 0.0423
I3E | 0.164
E10V | 0.396
E10T | -0.0488
A4C | -0.0895
I3N | -0.0338
M8E | 0.196
D12G | 0.308
E10M | 0.18
D12K | 0.0376
E10W | -0.0561
I3Q | -0.0599
M2E | 0.244
E10G | -0.0302
M2T | -0.0537

Block 4
Target: CDC34 UBC core domain (UniProt P49427)
Technique: yeast two-hybrid
Sample: yeast
Setting: mostly zero background
Baseline: not given
Direction: higher = stronger interaction
B1: TRIM22 RING domain (UniProt Q8IYM9); chain KEVKMSPQEGQKRDVCEHHGKKLQIFCKEDGKVICWVCELSQEHQGHQTFRINEVVKECQEK
B2: TRIM48 RING domain (UniProt Q8IWZ4); chain ISQVFQRELTCPICMNYFIDPVTIDCGHSFCRPCFYLNWQDIPILTQCFECIKTIQQRNLKT
B3: RNF181 RING domain (UniProt Q9P0P0); chain VIRGSQAELKCPVCLLEFEEEETAIEMPCHHLFHSSCILPWLSKTNSCPLCRYELPTDDDTY
B4: ZNRF3 RING domain (UniProt Q9ULT6); chain DTLSSSSTSDCAICLEKYIDGEELRVIPCTHRFHRKCVDPWLLQHHTCPHCRHNIIEQKGNP
B5: PRKN RING domain (UniProt O60260); chain LIATNSRNITCITCTDVRSPVLVFQCNSRHVICLDCFHLYCVTRLNDRQFVHDPQLGYSLPCVAGCPNSLIKELHH
B6: RNF135 RING domain (UniProt Q8IUD6); chain PVWLAEDDLGCIICQGLLDWPATLPCGHSFCRHCLEALWGARDARRWACPTCRQGAAQQPHLR
B7: DTX1 RING domain (UniProt Q86Y01); chain QKVKNPPDEDCTICMERLVTASGYEGVLRHKGVRPELVGRLGRCGHMYHLLCLVAMYSNGNKDGSLQCPTCKAIYGEKTGTQ
B8: RNF24 RING domain (UniProt Q9Y225); chain KVKELNLHELCAVCLEDFKPRDELGICPCKHAFHRKCLIKWLEVRKVCPLCNMPVLQLAQLH
B9: Ltn1 RING domain (UniProt Q6A009); chain VDKRFEGVEDCMICFSVIHGFNYSLPKKACRTCKKKFHSACLYKWFTSSNKSTCPLCRETFF
Residues (chain): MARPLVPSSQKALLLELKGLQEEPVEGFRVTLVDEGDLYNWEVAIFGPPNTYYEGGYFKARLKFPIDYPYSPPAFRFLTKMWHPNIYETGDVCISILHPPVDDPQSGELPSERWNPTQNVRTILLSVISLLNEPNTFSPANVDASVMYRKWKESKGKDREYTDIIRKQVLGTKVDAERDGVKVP
Sequence | lacZ reporter activity
B1 (TRIM22 RING domain) | 0
NTAPSLTVPECAICLQTCVHPVSLPCKHVFCYLCVKGASWLGKRCALCRQEIPEDFLDK (RNF146 RING domain (UniProt Q9NTX7)) | 0
B2 (TRIM48 RING domain) | 0
MDDQGCPRCKTTKYRNPSLKLMVNVCGHTLCESCVDLLFVRGAGNCPECGTPLRKSNFRV (MNAT1 RING domain (UniProt P51948)) | 0
B3 (RNF181 RING domain) | 0
QLRRLQEERTCKVCLDRAVSIVFVPCGHLVCAECAPGLQLCPICRAPVRSRVRTF (BIRC7 RING domain (UniProt Q96CA5)) | 0
B4 (ZNRF3 RING domain) | 0
B5 (PRKN RING domain) | 0
B6 (RNF135 RING domain) | 0
B7 (DTX1 RING domain) | 0
KLWDINAHITCRLCSGYLIDATTVTECLHTFCRSCLVKYLEENNTCPTCRIVIHQSHPLQ (PCGF3 RING domain (UniProt Q3KNV8)) | 0
B8 (RNF24 RING domain) | 0
KITELNPHLMCVLCGGYFIDATTIIECLHSFCKTCIVRYLETSKYCPICDVQVHKTRPLL (BMI1 RING domain (UniProt P35226)) | 0
B9 (Ltn1 RING domain) | 0
ALDRLEKLLRCSRCTNILREPVCLGGCEHIFCSNCVSDCIGTGCPVCYTPAWIQDLKI (BARD1 RING domain (UniProt Q99728)) | 0

Some of these lines once more (block 1):
Substitution | relative binding score
S150M | 83.2%
G23I | 83.2%
G148I | 69.4%
T17L | 87.7%
V40Q | -10.2%
D144N | 95%
A170C | 102%
N22T | 101%
A84S | 83.6%
